{"data": "Results pooled from the literature", "note": "Parts stem from different laboratories: compare values within a part only."}
{"data": "Sample 1", "target": "RNA binding protein fox-1 homolog 2, RRM domain, GST-SBP tag (RBFOX2, Homo sapiens, UniProt O43251-10, residues 100-194)", "method": "RNA Bind-n-Seq", "form": "RNA", "sample": "in vitro", "tested at": "365 nM", "notes": "natural RNA segment, single round, ends assumed", "reference": "no-protein control", "direction": "higher = stronger binding", "shared flanks, not repeated": "GGGAGUUCUACAGUCCGACGAUC … UGGAAUUCUCGGGUGCCAA", "Construct (chain)": "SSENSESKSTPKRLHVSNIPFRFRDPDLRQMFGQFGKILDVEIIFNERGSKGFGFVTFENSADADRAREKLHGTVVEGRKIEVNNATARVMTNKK"}
{"Sequence": "UAAAAUCCCUGUGGCCAGUUUGAACACCCCUGUUGUAUUCUUUUCUCUGUUCAGUGUGUCAGCUAUUUUGUGAAGAUGCUUAGAUGUAUAGUUUUGAUAACCACAGUUUU", "RBNS enrichment (R)": 0.928}
{"Sequence": "CAGUAUUCAGCGAGCACGCGAACCCACGCUUCUUACCUUUACCUUGAGCUGGGACUGGCUUGGGGCUUAGAACCAAGAACAGGUAGAAAAUUCCUUAAACAAAGCAUUCC", "RBNS enrichment (R)": 1.88}
{"Sequence": "ACUUCUAACUUUGCUCCAAGCCACUCUCUUUUUAAACAGCAACAAUUUAAAGCUAUGAAGUCACCUGGAGAAAAGGAACGUUGCUCUUGGACAGCAAGCAAACCAUUUCU", "RBNS enrichment (R)": 0.567}
{"Sequence": "AAACAAAACAAAAAGAAGAAAAGAUAAAAAGGAAGGCCAUUAUGGUCAGUAGCCCUAACCUCACUAACUGACAUACUCCCAAACCAGGCUUCUUGGGCCAGGUCUGUCCC", "RBNS enrichment (R)": 0.289}
{"Sequence": "UUUGGUAACUAGGUUAUGGGCUCUACAUUGUCAGCUACUUGGGAUAUAUAUUUAAUUUUCUUAAAUUCCCGUUAAACUCUAUUUUAUGGUUUUGAUUUCAGAUUGCAAAC", "RBNS enrichment (R)": 0.719}
{"Sequence": "GUUCAUUAUUGAUGUUUUUAUAGUGAUCCAGCCACUCUAGCUUUAAGAAUAGCUAGGUUGUAUUAAAACAUGUAAGCUACUUUAAGUGAUAAAUCAAUAGCUAAAGUUUU", "RBNS enrichment (R)": 0.526}
{"Sequence": "UUUGAGCACAUGUUAAUUUUUUUCCCUCUUUCCCCACUUUUAUUUUUUUAAAUAAGGGAUAACAUAUUCUUUAUAGAAUAGUGCUUGUUCUGGAAGAGAUUCAGGUGAAA", "RBNS enrichment (R)": 0.416}
{"Sequence": "CAUGGUGACACAUAGCAUUGAACUCUCCACUCUGAGGGUGGGUUUCCCUCCCCCUGCCUCUUCUGGGUUGGUCACCCCAUAGGACAGCCACAGGACAGUCACUAGCACCU", "RBNS enrichment (R)": 0.35}
{"data": "Sample 2", "target": "Replicase polyprotein 1ab, main protease (rep, Severe acute respiratory syndrome coronavirus 2, UniProt P0DTD1)", "effect on": "enzyme activity", "action": "inhibitor", "tested at": "20 µM", "notes": "hit confirmation"}
{"SMILES": "CCN(CC)c1ccc(C(=C2C=CC(=[N+](CC)CC)C=C2)c2ccccc2)cc1", "inhibition": "86.9%"}
{"SMILES": "NC(=S)N/N=C/c1coc2ccccc2c1=O", "inhibition": "51.8%"}
{"SMILES": "CC[N+](C)(CC)CCC[n+]1c(-c2ccccc2)c2cc(N)ccc2c2ccc(N)cc21", "inhibition": "90.9%"}
{"data": "Sample 3", "target": "Ras GTPase-activating protein-binding protein 1, full length (G3BP1, Homo sapiens, UniProt Q13283)", "method": "RNA Bind-n-Seq", "form": "RNA", "sample": "in vitro", "tested at": "200 nM", "notes": "whole 134-nt RNA, ends assumed", "with": "150 mM KCl", "reference": "input library", "direction": "higher = stronger binding", "shared flanks, not repeated": "GGGAGUUCUACAGUCCGACGAUC … UGGAAUUCUCGGGUGUCAAGG", "chain of UniProt Q13283 (whole entry, looked up)": "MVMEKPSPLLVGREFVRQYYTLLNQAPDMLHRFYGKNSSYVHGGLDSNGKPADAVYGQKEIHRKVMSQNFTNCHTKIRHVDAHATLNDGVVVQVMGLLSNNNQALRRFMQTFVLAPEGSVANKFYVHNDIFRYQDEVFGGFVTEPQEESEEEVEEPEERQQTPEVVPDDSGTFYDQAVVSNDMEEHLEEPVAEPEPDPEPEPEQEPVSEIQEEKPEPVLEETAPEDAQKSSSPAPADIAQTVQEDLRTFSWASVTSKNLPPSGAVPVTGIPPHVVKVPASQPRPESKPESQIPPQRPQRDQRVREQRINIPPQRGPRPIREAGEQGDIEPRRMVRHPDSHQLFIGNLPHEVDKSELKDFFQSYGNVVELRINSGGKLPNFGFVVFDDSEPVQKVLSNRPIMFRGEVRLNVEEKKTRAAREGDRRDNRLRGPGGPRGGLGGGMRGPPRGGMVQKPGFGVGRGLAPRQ"}
{"Sequence": "AGUCCUGUGCUACACAUCGUAUGUACCGAAUCGGGCCCCCGGGGCCCCCGGCCCCCGGAAAGUAUUAUGUUACGCCGUUCGGAUCUGCAC", "log2 enrichment": -0.276}
{"Sequence": "UCCUGUGCUACACAUCGUAUGUACCGAAUCGGGGUGGGGUUUUUGGGGAAAAAAAGGGGAAAGUAUUAUGUUACGCCGUUCGGAUCUGCA", "log2 enrichment": 0.627}
{"Sequence": "GCAGGAAGUAAAAACAAAUGGAAAUGCUUCGGAUAGUGGCAGGGGUGGGGGUUGCUAAGGAAAGGGUGGGAUGGGAGUGGGAAAAGAGUU", "log2 enrichment": 0.733}
{"Sequence": "UCCUGUGCUACACAUCGUAUGUACCGAAUCGGGGUUUUUGGGGUUUUUGGGUUUUUGGGGAAAGUAUUAUGUUACGCCGUUCGGAUCUGC", "log2 enrichment": 0.251}
{"Sequence": "UAACUUUAGAGGAGGAUCUGAUGGUUAUGGCAGUGGACGUGGAUUUGGGGAUGGCUAUAAUGGGUAUGGAGGAGGACCUGGAGGUGGCAA", "log2 enrichment": 0.347}
{"Sequence": "UUACAGAUGUAGAGCUAAAACGACUGAAGGAUGCUUUCAAGAGGACCUGUGGACUCUCAUAUUACAUGGGCCAGCACUGCUUCAUCCGGG", "log2 enrichment": 0.335}
{"data": "Sample 4", "target": "Interferon regulatory factor 3, full length, phosphomimetic (IRF3, Homo sapiens, UniProt Q14653, residues 1-427, S386D/S396D/S398D/S402D/T404D/S405D)", "method": "protein-binding microarray", "form": "double-stranded DNA, one strand shown", "sample": "in vitro", "tested at": "2540 nM top", "notes": "60-bp whole probe", "with": "salmon DNA 0.4 mg/ml", "reference": "random background probes", "direction": "higher = stronger binding", "shared flanks, not repeated": "GCCTAGCAC … GTCTTGATTCGCTTGACGCTGCTG", "Construct (chain)": "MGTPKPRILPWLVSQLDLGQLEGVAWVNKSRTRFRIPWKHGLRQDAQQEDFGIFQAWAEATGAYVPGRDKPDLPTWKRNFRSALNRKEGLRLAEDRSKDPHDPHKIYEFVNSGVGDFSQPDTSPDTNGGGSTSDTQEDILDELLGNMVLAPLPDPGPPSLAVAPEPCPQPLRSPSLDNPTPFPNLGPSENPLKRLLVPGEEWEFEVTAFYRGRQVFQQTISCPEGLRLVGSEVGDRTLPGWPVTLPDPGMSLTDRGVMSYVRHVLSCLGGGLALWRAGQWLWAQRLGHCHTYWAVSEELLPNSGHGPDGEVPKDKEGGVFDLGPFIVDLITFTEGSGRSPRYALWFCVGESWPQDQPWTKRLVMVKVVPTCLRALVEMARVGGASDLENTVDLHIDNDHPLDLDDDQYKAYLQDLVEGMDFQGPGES"}
{"Sequence": "TTAGGACTGGGTCCCGGTTAGTGCTAG", "fitted relative affinity [z-score]": -0.891}
{"Sequence": "GCTATTTTTAGGATGGGCTAGTGCTAG", "fitted relative affinity [z-score]": 0.498}
{"Sequence": "TTACATTCCAGTTTCGATTAGTGCTAG", "fitted relative affinity [z-score]": 5.02}
{"Sequence": "GACGATTTCGGGTTTGGAGACGTGCTA", "fitted relative affinity [z-score]": 2.35}
{"Sequence": "CCAGACTGCAGAGCAAGATCGTGCTAG", "fitted relative affinity [z-score]": -0.288}
{"Sequence": "TTAGGTTTCCTTTCCATTTAGTGCTAG", "fitted relative affinity [z-score]": 10.5}
{"Sequence": "TTAGGTTTCGGGTTTCGGTAAGTGCTA", "fitted relative affinity [z-score]": 5.98}
{"Sequence": "TCATTTTTTTTTCTGATACTGTGCTAG", "fitted relative affinity [z-score]": 1.71}
{"data": "Sample 5", "target": "Replicase polyprotein 1ab, nsp13 helicase (rep, Severe acute respiratory syndrome coronavirus 2, UniProt P0DTD1)", "action": "inhibitor", "tested at": "20 µM"}
{"Compound": "O=C(NOCCO)c1ccc2cncn2c1Nc1ccc(I)cc1F", "inhibition [%]": 2.03}
{"Compound": "Fc1ccc(-c2c3cccc(C(F)(F)F)c3nn2Cc2ccc(F)cc2Cl)cc1", "inhibition [%]": 33.5}
{"Compound": "Clc1ccccc1C(c1ccccc1)(c1ccccc1)n1cccn1", "inhibition [%]": 8.62}
{"Compound": "CC(=O)NCCc1c[nH]c2ccccc12", "inhibition [%]": 0.89}
{"Compound": "Cc1nccn1CC1CCc2c(c3ccccc3n2C)C1=O (centres unmarked)", "inhibition [%]": 2.07}
{"Compound": "Cc1cc(C#N)cc(C)c1Oc1nc(Nc2ccc(C#N)cc2)nc(N)c1Br", "inhibition [%]": -0.32}
{"Compound": "c1ccc2c(Oc3nc(Nc4ccc(N5CCOCC5)cc4)c4ncn(C5CCCCC5)c4n3)cccc2c1", "inhibition [%]": 2}
{"Compound": "NC(=O)N/N=C/c1ccc(Oc2ccc(F)cc2)cc1", "inhibition [%]": -3.78}
{"Compound": "Cc1csc(S(=O)(=O)N(CC(C)C)c2cc3c(cc2OCc2ccc(C(=O)O)cc2)CCC3)n1", "inhibition [%]": 1.76}
{"Compound": "O=C(/C=C/c1ccc(O)cc1)c1ccc(O)cc1O", "inhibition [%]": 3.95}
{"Compound": "COC(=O)CN1CN(c2ccccc2)C2(CCN(Cc3cccc4ccccc34)CC2)C1=O", "inhibition [%]": 3.82}
{"Compound": "CC=CC1=C(C(=O)O)N2C(=O)[C@@H](NC(=O)[C@H](N)c3ccc(O)cc3)[C@H]2SC1", "inhibition [%]": 6.13}
{"Compound": "CC[C@H](CC[C@@H](C)[C@H]1CC[C@H]2[C@@H]3CC=C4C[C@@H](O[C@@H]5O[C@H](CO)[C@@H](O)[C@H](O)[C@H]5O)CC[C@]4(C)[C@H]3CC[C@]12C)C(C)C", "inhibition [%]": 2.89}
{"Compound": "CCC(C)C(CC)C(N)=O (centres unmarked)", "inhibition [%]": -1.22}
{"Compound": "NC(=O)NO", "inhibition [%]": -1.64}
{"Compound": "N=C1N[C@H]2[C@H](CS[C@H]2CCCCC(=O)O)N1", "inhibition [%]": -1.51}
{"Compound": "COC(=O)N[C@@H](C)CNc1nccc(-c2cn(C(C)C)nc2-c2cc(Cl)cc(NS(C)(=O)=O)c2F)n1", "inhibition [%]": 4.96}
{"Compound": "Cc1cc(O)c2c(c1)C(=O)c1cc(O)cc(O)c1C2=O", "inhibition [%]": 19.4}
{"Compound": "c1ccc(C2(c3ccccc3)CC2C2=NCCN2)cc1 (centres unmarked)", "inhibition [%]": -7.01}
{"Compound": "NC[C@H]1O[C@H](O[C@H]2[C@H](O)[C@@H](O[C@H]3O[C@H](CO)[C@@H](O)[C@H](N)[C@H]3O)[C@H](N)C[C@@H]2N)[C@H](N)[C@@H](O)[C@@H]1O", "inhibition [%]": 9.04}
{"Compound": "NS(=O)(=O)C#Cc1ccccc1", "inhibition [%]": 1.59}
{"Compound": "COCC1(CO)C(=O)C2CCN1CC2 (centres unmarked)", "inhibition [%]": -1.11}
{"Compound": "Cc1oc2nc3c(c(NC(=O)CN4CCCC4=O)c2c1C)CCCC3", "inhibition [%]": 0.88}
{"Compound": "C=C[C@]1(C)C[C@@H](OC(=O)CSC(C)(C)CNC(=O)[C@H](N)C(C)C)[C@]2(C)[C@H](C)CC[C@]3(CCC(=O)[C@H]32)[C@@H](C)[C@@H]1O", "inhibition [%]": 5.16}
{"Compound": "CC(C)(C)CC(C)(C)c1ccc(O)c(Cc2ccc(Cl)cc2Cl)c1", "inhibition [%]": 2.8}
{"data": "Other studies, line by line", "effect on": "pseudovirus infection"}
{"Structure (SMILES)": "O=C(O)C(O)C(O)C(=O)O.c1cnc2cc3c(cc2n1)[C@@H]1CNC[C@H]3C1", "tested on": "Vesicular stomatitis virus", "test": "FDA-approved drug library screen", "setting": "concentration not given, SARS-CoV-2 spike pseudotype", "scale": "reference: vehicle", "GFP-positive cells": "81.7%"}
{"Structure (SMILES)": "Nc1nc2[nH]cc(CCc3ccc(C(=O)N[C@@H](CCC(=O)O)C(=O)O)cc3)c2c(=O)[nH]1", "tested on": "Vesicular stomatitis virus", "test": "FDA-approved drug library screen", "setting": "concentration not given, SARS-CoV-2 spike pseudotype", "scale": "reference: vehicle", "GFP-positive cells": "71.8%"}
{"Structure (SMILES)": "C[C@H]1O[C@@H](O[C@H]2[C@@H](O)C[C@H](O[C@H]3[C@@H](O)C[C@H](O[C@H]4CC[C@@]5(C)[C@H](CC[C@@H]6[C@@H]5CC[C@]5(C)[C@@H](C7=CC(=O)OC7)CC[C@]65O)C4)O[C@@H]3C)O[C@@H]2C)C[C@H](O)[C@@H]1O", "tested on": "HEK-293T", "test": "FDA-approved drug library counter-screen", "test system": "VSV pseudotyped with VSV-G", "setting": "10 µM, 16 h", "scale": "reference: vehicle-treated", "GFP-positive cells": "0.05%"}
{"note": "A few entries again (other studies, line by line):"}
{"Structure (SMILES)": "O=C(O)C(O)C(O)C(=O)O.c1cnc2cc3c(cc2n1)[C@@H]1CNC[C@H]3C1", "tested on": "Vesicular stomatitis virus", "test": "FDA-approved drug library screen", "setting": "concentration not given, SARS-CoV-2 spike pseudotype", "scale": "reference: vehicle", "GFP-positive cells": "81.7%"}
{"Structure (SMILES)": "Nc1nc2[nH]cc(CCc3ccc(C(=O)N[C@@H](CCC(=O)O)C(=O)O)cc3)c2c(=O)[nH]1", "tested on": "Vesicular stomatitis virus", "test": "FDA-approved drug library screen", "setting": "concentration not given, SARS-CoV-2 spike pseudotype", "scale": "reference: vehicle", "GFP-positive cells": "71.8%"}
{"Structure (SMILES)": "C[C@H]1O[C@@H](O[C@H]2[C@@H](O)C[C@H](O[C@H]3[C@@H](O)C[C@H](O[C@H]4CC[C@@]5(C)[C@H](CC[C@@H]6[C@@H]5CC[C@]5(C)[C@@H](C7=CC(=O)OC7)CC[C@]65O)C4)O[C@@H]3C)O[C@@H]2C)C[C@H](O)[C@@H]1O", "tested on": "HEK-293T", "test": "FDA-approved drug library counter-screen", "test system": "VSV pseudotyped with VSV-G", "setting": "10 µM, 16 h", "scale": "reference: vehicle-treated", "GFP-positive cells": "0.05%"}
